# Measured values of several laboratories.
# Parts stem from different laboratories: compare values within a part only.

# Study 1 — Compound: O=c1cc(N2CCOCC2)oc2c1ccc1ccccc12; effect on: enzyme activity; action: inhibitor; concentration: 0.5 µM; relative to: control
target,remaining activity [%]
"Mitogen-activated protein kinase 11 (MAPK11, Homo sapiens, UniProt Q15759)",97.9
"Dual specificity protein kinase CLK4 (CLK4, Homo sapiens, UniProt Q9HAZ1)",101
"Rho-associated protein kinase 1 (ROCK1, Homo sapiens, UniProt Q13464)",94.2
"G protein-coupled receptor kinase 4 (GRK4, Homo sapiens, UniProt P32298)",104
"Serine/threonine-protein kinase DCLK2 (DCLK2, Homo sapiens, UniProt Q8N568)",100
"Serine/threonine-protein kinase PLK3 (PLK3, Homo sapiens, UniProt Q9H4B4)",64
"Hepatocyte growth factor receptor (MET, Homo sapiens, UniProt P08581)",161
"RAC-beta serine/threonine-protein kinase (AKT2, Homo sapiens, UniProt P31751)",98.9
"Cyclin-dependent kinase 9, with cyclin K (CDK9, Homo sapiens, UniProt P50750)",99.9
"cGMP-dependent protein kinase 2 (PRKG2, Homo sapiens, UniProt Q13237)",102
"Cyclin-dependent kinase 1, with cyclin A (CDK1, Homo sapiens, UniProt P06493)",103
"Serine/threonine-protein kinase Nek3 (NEK3, Homo sapiens, UniProt P51956)",111
"Serine/threonine-protein kinase PAK 3 (PAK3, Homo sapiens, UniProt O75914)",102

# Study 2 — concentration: 1 µM
# SMILES: COc1ccc2[nH]c3c4[nH]c5ccc(OC)cc5c4c4c(c3c2c1)C(=O)NC4=O
target,method,notes,relative to,remaining binding [%]
"Mitogen-activated protein kinase kinase kinase 12 (MAP3K12, Homo sapiens, UniProt Q12852)",competitive binding,DLK,,77
"Tyrosine-protein kinase ABL1 (ABL1, Homo sapiens, UniProt P00519, F317L)",competitive binding scan,,,75
"Cyclin-dependent kinase 2 (CDK2, Homo sapiens, UniProt P24941)",competitive binding panel,,vehicle,93
"Protein kinase C epsilon type (PRKCE, Homo sapiens, UniProt Q02156)",competitive binding panel,,vehicle,75
"Dual specificity protein kinase CLK4 (CLK4, Homo sapiens, UniProt Q9HAZ1)",competitive binding panel,,vehicle,57
"Serine/threonine-protein kinase ULK2 (ULK2, Homo sapiens, UniProt Q8IYT8)",competitive binding panel,,vehicle,87

# Study 3 — action: inhibitor; concentration: 1 µM
# Structure (SMILES): C=CC(=O)N1CCC[C@@H](n2nc(-c3ccc(Oc4ccccc4)cc3)c3c(N)ncnc32)C1
target,effect on,inhibition [%]
"Mitogen-activated protein kinase 12 (MAPK12, Homo sapiens, UniProt P53778)",enzyme activity,23
"Receptor-type tyrosine-protein kinase FLT3 (FLT3, Homo sapiens, UniProt P36888)",,63
"Serine/threonine-protein kinase MARK1 (MARK1, Homo sapiens, UniProt Q9P0L2)",enzyme activity,9
"Cyclin-dependent kinase 4, with cyclin D1 (CDK4, Homo sapiens, UniProt P11802)",,0
"Receptor-type tyrosine-protein kinase FLT3 (FLT3, Homo sapiens, UniProt P36888, D835Y)",,60
"Serine/threonine-protein kinase N1 (PKN1, Homo sapiens, UniProt Q16512)",,20
"Homeodomain-interacting protein kinase 4 (HIPK4, Homo sapiens, UniProt Q8NE63)",enzyme activity,5
"Serine/threonine-protein kinase TAO3 (TAOK3, Homo sapiens, UniProt Q9H2K8)",enzyme activity,22
"Serine/threonine-protein kinase 24 (STK24, Homo sapiens, UniProt Q9Y6E0)",enzyme activity,21

# Study 4 — effect on: cell-free assay; method: competition with immobilised ligand; concentration: 1 µM
# SMILES: O=C1CCc2cc(Nc3cc(OC4CCOCC4)c([N+](=O)[O-])cc3Cl)ccc2N1
target,remaining binding
"Epidermal growth factor receptor (EGFR, Homo sapiens, UniProt P00533, L858R)",100%
"Tyrosine-protein kinase HCK (HCK, Homo sapiens, UniProt P08631)",100%
"Phosphatidylinositol 4,5-bisphosphate 3-kinase catalytic subunit alpha isoform (PIK3CA, Homo sapiens, UniProt P42336, E542K)",71%
"Mitogen-activated protein kinase kinase kinase 4 (MAP3K4, Homo sapiens, UniProt Q9Y6R4)",85%
"Mitogen-activated protein kinase kinase kinase kinase 2 (MAP4K2, Homo sapiens, UniProt Q12851)",95%
"LIM domain kinase 2 (LIMK2, Homo sapiens, UniProt P53671)",100%
"Serine/threonine-protein kinase PLK1 (PLK1, Homo sapiens, UniProt P53350)",100%
"Casein kinase I isoform alpha-like (CSNK1A1L, Homo sapiens, UniProt Q8N752)",84%
"Bone morphogenetic protein receptor type-2 (BMPR2, Homo sapiens, UniProt Q13873)",92%

# For quick reference, copied from above (study 4):
target,remaining binding
"Phosphatidylinositol 4,5-bisphosphate 3-kinase catalytic subunit alpha isoform (PIK3CA, Homo sapiens, UniProt P42336, E542K)",71%
"Mitogen-activated protein kinase kinase kinase 4 (MAP3K4, Homo sapiens, UniProt Q9Y6R4)",85%
"Bone morphogenetic protein receptor type-2 (BMPR2, Homo sapiens, UniProt Q13873)",92%
"Casein kinase I isoform alpha-like (CSNK1A1L, Homo sapiens, UniProt Q8N752)",84%
